# Published values gathered from unrelated publications.
# Sample: plasma
Compound,system,setting,measurement,result
C/C(N)=N/C(=N\S(=O)(=O)c1ccc(C(F)(F)F)cc1)N1C[C@H](c2ccccc2)C(c2ccc(Cl)cc2)=N1,male Sprague-Dawley rat,"intravenous, 3 mg/kg",clearance,0.546 L/h/kg
OC1(C(F)(F)F)CCN(c2nc(Nc3ccnc(C(F)(F)F)c3)nc(-c3cccc(C(F)(F)F)n3)n2)C1 (stereo not shown),Sprague-Dawley rat,"intravenous, 1 mg/kg",clearance,0.846 L/h/kg
CCC(CC)n1c(Cc2cccs2)nc2cc(C(=O)N[C@@H](CC(=O)O)c3ccccc3)ccc21,male Sprague-Dawley rat,"intravenous, 1 mg/kg",clearance,1.82 L/h/kg
CCCN(C)c1cc(C(F)(F)F)nc(SCCC(=O)NCc2ccco2)n1,male Wistar rat,"intraperitoneal, 25 mg/kg, single dose",CL/F,0.00864 L/h/kg
O=c1c(-c2ccc(Cl)c(CN3CCOCC3)c2)coc2cc(O)ccc12,male Sprague-Dawley rat,"intravenous, 2 mg/kg",clearance,3.4 L/h/kg
CCC1(CC)CC(=O)N(C2CCOc3ccc(C(=O)NC4CC(C)(C)Oc5ccccc54)cc32)C(=N)N1 (stereo not shown),male Wistar rat,intravenous,clearance,2.74 L/h/kg
Cc1cccc(Cn2ncc3c4cc(F)c(CN(C)C)cc4n(C)c3c2=O)n1,Sprague-Dawley rat,"intravenous, 5 mg/kg",clearance,2.59 L/h/kg
O=C(C1CCN(c2nnnn2-c2ccccc2)CC1)N1CCCc2ccccc21,male Sprague-Dawley rat,"intravenous, 1 mg/kg",clearance,1.96 L/h/kg
Cc1cc2c(cc1O)C=C1C=CC(=O)C(C)(C)[C@H]1CC2,male Sprague-Dawley rat,"intravenous, 2 mg/kg",clearance,3.2 L/h/kg
N#Cc1ccnc(N2C(=O)CC[C@H]2C(=O)N(c2cc(F)cc(F)c2)[C@H](C(=O)NC2CC(F)(F)C2)c2ccccc2Cl)c1 (stereo in doubt),Sprague-Dawley rat,"intravenous, 1 mg/kg",clearance,0.45 L/h/kg
COC(=O)C1=CNC=C(C(=O)OC)C1c1ccc(F)c(C(F)(F)F)c1,male Sprague-Dawley rat,"intravenous, 5 mg/kg",clearance,6.24 L/h/kg
CN1CCC[C@@H]1C(=O)N[C@@H](Cc1ccc(-c2ccccc2)cc1)B(O)O,male Sprague-Dawley rat,"intravenous, 1 mg/kg",clearance,1.2 L/h/kg
CCOP(=O)(CC(=O)Nc1ccc(S(=O)(=O)N(CC(N)=O)c2ccc(N(CC(N)=O)S(=O)(=O)c3ccc(OC)cc3)c3ccccc23)cc1)OCC,male Wistar rat,"intravenous, 28 mg/kg, single dose",clearance,2.32 L/h/kg

# For quick reference, copied from above:
Compound,system,setting,measurement,result
C/C(N)=N/C(=N\S(=O)(=O)c1ccc(C(F)(F)F)cc1)N1C[C@H](c2ccccc2)C(c2ccc(Cl)cc2)=N1,male Sprague-Dawley rat,"intravenous, 3 mg/kg",clearance,0.546 L/h/kg
